Results gathered from unrelated publications.
Each line is one published result; not all experiments were run side by side. Numbers after ± are the reported error.
rep papain-like protease: Replicase polyprotein 1ab, papain-like protease (rep, Middle East respiratory syndrome-related coronavirus, UniProt K9N7C7)
OPG122: mRNA-decapping protein OPG122 (OPG122, Vaccinia virus, UniProt P04312)
bglR: Beta-glucuronidase (bglR, Clostridium perfringens, UniProt Q8XP19)
SCN9A: Sodium channel protein type 9 subunit alpha (SCN9A, Homo sapiens, UniProt Q15858)
Replicase polyprotein 1a papain-like protease: Replicase polyprotein 1a, papain-like protease (Severe acute respiratory syndrome coronavirus 2, UniProt P0DTC1)
Lethal factor: Lethal factor (Bacillus anthracis, UniProt P15917)

Structure (SMILES) | target | test | system | conditions | IC50
CCC(C(=O)Nc1ccccc1F)n1cccc2nc(SCc3ccc(F)cc3)nc1-2 (stereo not drawn) | rep papain-like protease | enzyme activity, inhibitor |  |  | > 100 µM
Nc1ncnc2c1ncn2C1CCC(COP(=O)(O)OP(=O)(O)OP(=O)(O)O)O1 (stereo not drawn) | OPG122 |  |  |  | 166 µM
Fc1ccc(-c2ccc(/C=C/Cn3ccnc3)cc2)cc1 | cyp121 (Mycobacterium tuberculosis, UniProt P9WPP7) | substrate depletion, inhibitor, LC-MS/MS |  | together with: cYY 20 µM | 21 µM
C1CCN(c2nnnc3c2sc2nc(N4CCOCC4)c4c(c23)CCCC4)CC1 | bglR |  |  |  | > 100 µM
CC(C)C[C@H](NC(=O)[C@H](CC(=O)O)NC(=O)[C@H](CCCCN)NC(=O)[C@H](CCCCN)NC(=O)[C@@H]1CSSC[C@@H]2NC(=O)[C@H](CCCCN)NC(=O)[C@H](CC(=O)O)NC(=O)[C@H](CC(N)=O)NC(=O)[C@H](CO)NC(=O)[C@@H]3CCCN3C(=O)[C@H](CC(N)=O)NC(=O)[C@@H]3CSSC[C@H](NC(=O)[C@H](C(C)C)NC(=O)[C@H](CC(C)C)NC(=O)[C@H](CO)NC(=O)[C@H](CO)NC(=O)[C@H](CO)NC(=O)[C@H](CCCCN)NC(=O)[C@H](CSSC[C@H](NC(=O)[C@H](C)N)C(=O)N[C@@H](CC(C)C)C(=O)NCC(=O)N[C@@H](Cc4ccccc4)C(=O)NCC(=O)N[C@@H](CCC(=O)O)C(=O)N[C@@H](CCCCN)C(=O)N3)NC2=O)C(=O)N[C@@H](CO)C(=O)N[C@@H](CCC(N)=O)C(=O)N[C@@H](CCCCN)C(=O)N[C@@H](Cc2c[nH]cn2)C(=O)N[C@@H](CCCCN)C(=O)N[C@@H](Cc2c[nH]c3ccccc23)C(=O)N1)C(=O)O | SCN9A | ion current, inhibitor, patch clamp |  |  | > 20 µM
Cc1ccc(N)cc1C(=O)NC(C)(C)c1ccc2c3c(cccc13)CC2 | Replicase polyprotein 1a papain-like protease | enzyme activity, inhibitor |  |  | 6.9 µM
CSc1nc(N)nc2c1ncn2C1OC(COP(=O)(O)OP(=O)(O)OP(=O)(O)O)C(O)C1O (stereo not drawn) | OPG122 |  |  |  | > 200 µM
O=C(O)c1ccc(Nc2cc(Nc3ccc(C(=O)O)cc3)c3c(=O)c(Nc4ccc(C(=O)O)cc4)c(-c4ccc(Nc5ccc(C(=O)O)cc5)c(Nc5ccc(C(=O)O)cc5)c4)oc3c2)cc1 | Dipeptidyl peptidase 4, with MERS-CoV spike (DPP4, Homo sapiens, UniProt P27487) |  |  |  | 12 µM
Cc1ccc(N2CCCN(C)CC2)cc1C(=O)NC1(c2ccc3c4c(cccc24)CC3)CC1 | Replicase polyprotein 1a papain-like protease | enzyme activity, inhibitor |  |  | 0.09 µM
C[C@H]1CN(c2nnnc3c2sc2nc(N4CCOCC4)c4c(c23)CCCC4)CCN1 | bglR |  |  |  | > 100 µM
CCC(C(=O)Nn1cccc1)n1c(SCc2ccc(F)cc2)nc2ncccc21 (stereo not drawn) | rep papain-like protease | enzyme activity, inhibitor |  |  | > 100 µM
Nc1ccc(Cl)cc1C(=O)OCC(COCP(=O)(O)OP(=O)(O)OP(=O)(O)O)Cn1cnc2c(N)ncnc21 (stereo not drawn) | cya (Bacillus anthracis, UniProt P40136) |  |  |  | 0.622 ± 0.124 µM
O=C(Nc1ccc(-c2ccccc2)cc1)N[C@H]1[C@H]([C@H](O)[C@H](O)CO)OC(C(=O)O)=C[C@@H]1O | Sialidase (nanI, Clostridium perfringens, UniProt A0A0H2YQR1) | enzyme activity, inhibitor |  |  | 36 µM
CC(C)C[C@@H]1NC(=O)[C@H](CCCNC(=N)N)NC(=O)[C@@H]2CCCN2C(=O)[C@@H]2CSSC[C@H](NC(=O)CNC(=O)[C@@H]3CCCN3C(=O)[C@H](CCCCN)NC(=O)[C@H](CC(=O)O)NC(=O)[C@@H](NC(=O)CN)C(C)C)C(=O)N[C@@H](CCCNC(=N)N)C(=O)N[C@@H](Cc3ccc(O)cc3)C(=O)N[C@@H](CC(C)C)C(=O)N[C@@H](Cc3ccccc3)C(=O)NCC(=O)NCC(=O)N[C@H]3CSSC[C@H](NC(=O)CNC1=O)C(=O)N[C@@H](CCCCN)C(=O)NCC(=O)N[C@@H](CCCCN)C(=O)NCC(=O)N[C@@H](Cc1c[nH]cn1)C(=O)N[C@@H](CC(=O)O)C(=O)N[C@@H](Cc1ccc(O)cc1)C(=O)N[C@H](C(=O)N[C@@H](C)C(=O)N[C@@H](Cc1c[nH]c4ccccc14)C(=O)N[C@@H](CC(=O)O)C(=O)NCC(=O)N[C@H](C(=O)N[C@@H](Cc1ccccc1)C(=O)N[C@@H](CO)C(=O)N[C@@H](CC(=O)O)C(=O)O)[C@@H](C)O)CSSC[C@H](NC(=O)[C@H](CC(=O)O)NC(=O)[C@H](CC(=O)O)NC(=O)[C@H](CC(=O)O)NC(=O)[C@H](CO)NC(=O)[C@H](CCCCN)NC3=O)C(=O)N2 | SCN9A | peak sodium current, inhibitor, automated patch clamp | HEK293 | holding potential -100 mV, together with: 0.1 % BSA | 0.38 µM
O=[N+]([O-])c1cc(C(F)(F)F)cc([N+](=O)[O-])c1NNC(=S)Nc1ccc(F)cc1 | Transcriptional activator VP30, with NP peptide (VP30, Zaire ebolavirus, UniProt Q05323) |  | Ebola virus |  | 26.9 µM
CC[C@H](C)[C@@H]1NC(=O)[C@@H]2CSSC[C@H](NC(=O)[C@H](CCCNC(=N)N)NC(=O)[C@@H]3CSSC[C@H](NC1=O)C(=O)N[C@@H]([C@@H](C)O)C(=O)N[C@@H](CCCNC(=N)N)C(=O)NCC(=O)N[C@@H](Cc1ccccc1)C(=O)N3)C(=O)N[C@@H](C)C(=O)N[C@H]1CSSC[C@H](NC(=O)[C@H](C(C)C)NC(=O)CNC(=O)[C@H](Cc3c[nH]cn3)NC(=O)[C@H](CC(C)C)NC1=O)C(=O)N[C@@H](CCCNC(=N)N)C(=O)N2 | Lethal factor | enzyme activity, inhibitor |  |  | 0.971 ± 0.048 µM
CC(=O)N[C@H]1CC(=O)NCCCC[C@@H](C(N)=O)NC(=O)[C@@H](Cc2ccccc2)NC(=O)[C@@H]2CCCN2C(=O)[C@H](CC(=O)O)NC(=O)[C@H](CC(=O)O)NC(=O)[C@H](Cc2ccc(O)cc2)NC(=O)[C@H](CCC(=O)O)NC1=O | Secreted effector protein (Yersinia pestis, UniProt O68720) |  |  |  | ~100 µM
N#CC(CC1CCCNC1=O)NC(=O)C(CC1CC1)NC(=O)c1cc2cc(F)cc(F)c2[nH]1 (stereo not drawn) | Procathepsin L (CTSL, Homo sapiens, UniProt P07711) | enzyme activity, inhibitor |  | pH 5, with preincubation | 6 µM
CC[C@H](C)[C@@H]1NC(=O)[C@H](CCCNC(=N)N)NC(=O)[C@H](CO)NC(=O)[C@H](CCC(=O)O)NC(=O)[C@H](CC(=O)O)NC(=O)CNC(=O)CNC(=O)[C@H]([C@@H](C)O)NC(=O)[C@H](Cc2ccccc2)NC(=O)[C@H](CO)NC(=O)[C@H]([C@@H](C)O)NC(=O)[C@H](C)NC(=O)[C@@H]2CSSC[C@@H](C(=O)N[C@@H](Cc3ccc(O)cc3)C(=O)N[C@@H](Cc3ccccc3)C(=O)N[C@H](C(=O)N[C@H](C(=O)NCC(=O)O)[C@@H](C)O)[C@@H](C)O)NC(=O)[C@H]([C@@H](C)O)NC(=O)[C@H](CSSC[C@H](NC(=O)[C@H](CCC(=O)O)NC(=O)[C@H](CO)NC(=O)[C@H](CCCCN)NC(=O)[C@H](Cc3ccc(O)cc3)NC(=O)[C@@H]3CCCN3C(=O)[C@H](Cc3ccccc3)NC(=O)[C@H](CCCCN)NC(=O)[C@H](CCCNC(=N)N)NC(=O)[C@H](CCCCN)NC(=O)[C@H](CCCCN)NC(=O)[C@H](Cc3ccc(O)cc3)NC(=O)[C@@H]3CCCN3C(=O)[C@@H](NC(=O)[C@H](CC(=O)O)NC(=O)[C@H](CCCCN)NC(=O)[C@H](CCCCN)NC(=O)[C@@H](NC(=O)[C@@H](NC(=O)[C@@H](N)CCC(=O)O)C(C)C)[C@@H](C)CC)[C@@H](C)O)C(=O)N[C@@H](CC(C)C)C(=O)N[C@@H](CCCCN)C(=O)N[C@@H](C)C(=O)N2)NC(=O)[C@H](CCCCN)NC(=O)[C@H](Cc2ccccc2)NC(=O)[C@H](Cc2ccccc2)NC(=O)CNC(=O)[C@@H]2CCCN2C(=O)[C@H](CCCCN)NC(=O)CNC(=O)[C@H](CCC(=O)O)NC(=O)[C@H](CCC(N)=O)NC1=O | KCNQ4 (Homo sapiens, UniProt P56696) | ion current, inhibitor, patch clamp |  |  | 2.5 µM
Nc1nc2c(nc(O)n2C2OC(COP(=O)(O)OP(=O)(O)OP(=O)(O)O)C(O)C2O)c(=O)[nH]1 (stereo not drawn) | OPG122 | inhibitor |  |  | > 200 µM
CC[C@H](C)[C@@H]1NC(=O)[C@H](CO)NC(=O)[C@H](CCCNC(=N)N)NC(=O)[C@H](CO)NC(=O)[C@H](C(C)C)NC(=O)CNC(=O)[C@H](CCCNC(=N)N)NC(=O)[C@H](CCCNC(=N)N)NC(=O)[C@H](CSCC(N)=O)NC(=O)[C@H](CC(C)C)NC(=O)[C@H](CO)NC(=O)[C@H](CCCNC(=N)N)NC(=O)[C@H](CO)NC(=O)[C@H](Cc2ccccc2)NC(=O)CNC(=O)[C@H](CCCNC(=N)N)NC(=O)[C@H]([C@@H](C)O)NC(=O)[C@H](CO)NC1=O | Lethal factor | enzyme activity, inhibitor |  |  | > 10 µM

A few entries again:
Structure (SMILES) | target | test | system | conditions | IC50
CC(C)C[C@H](NC(=O)[C@H](CC(=O)O)NC(=O)[C@H](CCCCN)NC(=O)[C@H](CCCCN)NC(=O)[C@@H]1CSSC[C@@H]2NC(=O)[C@H](CCCCN)NC(=O)[C@H](CC(=O)O)NC(=O)[C@H](CC(N)=O)NC(=O)[C@H](CO)NC(=O)[C@@H]3CCCN3C(=O)[C@H](CC(N)=O)NC(=O)[C@@H]3CSSC[C@H](NC(=O)[C@H](C(C)C)NC(=O)[C@H](CC(C)C)NC(=O)[C@H](CO)NC(=O)[C@H](CO)NC(=O)[C@H](CO)NC(=O)[C@H](CCCCN)NC(=O)[C@H](CSSC[C@H](NC(=O)[C@H](C)N)C(=O)N[C@@H](CC(C)C)C(=O)NCC(=O)N[C@@H](Cc4ccccc4)C(=O)NCC(=O)N[C@@H](CCC(=O)O)C(=O)N[C@@H](CCCCN)C(=O)N3)NC2=O)C(=O)N[C@@H](CO)C(=O)N[C@@H](CCC(N)=O)C(=O)N[C@@H](CCCCN)C(=O)N[C@@H](Cc2c[nH]cn2)C(=O)N[C@@H](CCCCN)C(=O)N[C@@H](Cc2c[nH]c3ccccc23)C(=O)N1)C(=O)O | SCN9A | ion current, inhibitor, patch clamp |  |  | > 20 µM
CCC(C(=O)Nc1ccccc1F)n1cccc2nc(SCc3ccc(F)cc3)nc1-2 (stereo not drawn) | rep papain-like protease | enzyme activity, inhibitor |  |  | > 100 µM
